Results gathered from unrelated publications.
Each line is one published result; not all experiments were run side by side. Values joined by “and” are separate records of one study, mostly repeats; a detail may differ. ± marks the error that the study gave.
Sequence of UniProt O95665 (whole entry, looked up): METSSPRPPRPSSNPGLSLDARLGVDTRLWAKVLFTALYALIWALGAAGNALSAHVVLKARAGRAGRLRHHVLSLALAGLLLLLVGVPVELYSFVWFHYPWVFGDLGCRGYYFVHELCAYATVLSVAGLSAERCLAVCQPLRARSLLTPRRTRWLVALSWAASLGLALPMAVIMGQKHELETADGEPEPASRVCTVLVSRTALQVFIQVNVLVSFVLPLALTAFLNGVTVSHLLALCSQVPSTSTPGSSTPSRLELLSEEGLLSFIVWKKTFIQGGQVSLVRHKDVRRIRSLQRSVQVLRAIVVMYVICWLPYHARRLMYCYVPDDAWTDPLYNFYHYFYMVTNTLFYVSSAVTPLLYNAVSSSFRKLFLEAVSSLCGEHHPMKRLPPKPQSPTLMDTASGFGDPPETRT
Sequence of UniProt Q62968 (whole entry, looked up): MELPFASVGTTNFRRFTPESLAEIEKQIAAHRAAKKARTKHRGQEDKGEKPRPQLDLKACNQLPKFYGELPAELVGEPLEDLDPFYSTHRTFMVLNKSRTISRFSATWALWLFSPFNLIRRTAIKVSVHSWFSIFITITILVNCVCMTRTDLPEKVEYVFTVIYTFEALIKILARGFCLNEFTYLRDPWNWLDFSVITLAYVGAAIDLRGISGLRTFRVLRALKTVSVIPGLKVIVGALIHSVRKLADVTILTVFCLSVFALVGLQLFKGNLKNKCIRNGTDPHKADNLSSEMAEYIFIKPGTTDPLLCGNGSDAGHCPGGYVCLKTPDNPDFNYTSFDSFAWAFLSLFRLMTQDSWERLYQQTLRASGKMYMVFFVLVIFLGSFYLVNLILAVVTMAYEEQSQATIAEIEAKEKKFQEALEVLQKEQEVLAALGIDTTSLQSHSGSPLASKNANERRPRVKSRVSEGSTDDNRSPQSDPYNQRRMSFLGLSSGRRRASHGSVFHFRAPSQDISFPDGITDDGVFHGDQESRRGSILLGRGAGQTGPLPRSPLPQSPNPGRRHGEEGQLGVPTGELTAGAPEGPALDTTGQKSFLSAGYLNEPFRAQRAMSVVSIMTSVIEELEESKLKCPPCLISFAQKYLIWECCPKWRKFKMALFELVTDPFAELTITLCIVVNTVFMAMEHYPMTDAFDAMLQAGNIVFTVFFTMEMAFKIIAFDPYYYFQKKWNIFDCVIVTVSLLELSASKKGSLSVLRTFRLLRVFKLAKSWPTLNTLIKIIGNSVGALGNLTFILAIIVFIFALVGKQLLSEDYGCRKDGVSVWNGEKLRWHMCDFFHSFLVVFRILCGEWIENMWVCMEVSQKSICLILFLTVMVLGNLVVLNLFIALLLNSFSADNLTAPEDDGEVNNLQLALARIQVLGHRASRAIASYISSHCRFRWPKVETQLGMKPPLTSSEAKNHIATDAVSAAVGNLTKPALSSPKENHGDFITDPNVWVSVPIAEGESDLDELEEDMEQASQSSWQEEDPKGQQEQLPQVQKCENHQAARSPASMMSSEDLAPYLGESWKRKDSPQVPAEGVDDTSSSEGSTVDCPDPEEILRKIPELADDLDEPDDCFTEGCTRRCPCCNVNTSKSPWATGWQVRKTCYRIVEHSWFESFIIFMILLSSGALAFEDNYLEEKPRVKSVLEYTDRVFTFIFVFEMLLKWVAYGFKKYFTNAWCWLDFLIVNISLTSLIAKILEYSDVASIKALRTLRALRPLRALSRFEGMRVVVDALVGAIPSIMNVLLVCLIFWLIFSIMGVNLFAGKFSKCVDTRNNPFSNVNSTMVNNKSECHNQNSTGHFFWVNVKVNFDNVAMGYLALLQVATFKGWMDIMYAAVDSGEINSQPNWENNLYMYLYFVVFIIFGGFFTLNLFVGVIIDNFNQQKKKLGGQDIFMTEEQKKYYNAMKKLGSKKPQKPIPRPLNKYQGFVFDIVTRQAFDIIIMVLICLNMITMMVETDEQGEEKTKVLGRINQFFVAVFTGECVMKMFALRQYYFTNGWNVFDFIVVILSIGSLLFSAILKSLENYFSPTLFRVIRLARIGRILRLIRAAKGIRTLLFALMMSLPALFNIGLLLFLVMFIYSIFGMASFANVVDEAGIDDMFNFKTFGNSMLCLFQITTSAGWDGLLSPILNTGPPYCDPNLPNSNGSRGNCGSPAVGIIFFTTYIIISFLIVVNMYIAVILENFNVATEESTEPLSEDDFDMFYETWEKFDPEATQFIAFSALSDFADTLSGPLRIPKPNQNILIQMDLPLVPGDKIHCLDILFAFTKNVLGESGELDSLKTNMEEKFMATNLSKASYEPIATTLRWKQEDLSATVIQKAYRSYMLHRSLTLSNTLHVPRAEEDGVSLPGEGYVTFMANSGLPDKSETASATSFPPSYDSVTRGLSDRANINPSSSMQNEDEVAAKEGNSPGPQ
Sequence of UniProt P34975 (whole entry, looked up): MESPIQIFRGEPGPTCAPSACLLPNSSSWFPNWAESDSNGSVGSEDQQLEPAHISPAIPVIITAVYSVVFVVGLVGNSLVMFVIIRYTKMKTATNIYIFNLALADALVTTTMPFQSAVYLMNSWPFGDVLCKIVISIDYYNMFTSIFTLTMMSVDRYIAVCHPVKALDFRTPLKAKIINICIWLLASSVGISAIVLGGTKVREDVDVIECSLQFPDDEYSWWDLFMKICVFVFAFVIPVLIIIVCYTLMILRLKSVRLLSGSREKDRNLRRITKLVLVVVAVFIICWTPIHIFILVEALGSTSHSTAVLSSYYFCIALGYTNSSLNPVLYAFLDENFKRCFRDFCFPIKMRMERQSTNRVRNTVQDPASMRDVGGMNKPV
Sequence of UniProt Q9UKS7 (whole entry, looked up): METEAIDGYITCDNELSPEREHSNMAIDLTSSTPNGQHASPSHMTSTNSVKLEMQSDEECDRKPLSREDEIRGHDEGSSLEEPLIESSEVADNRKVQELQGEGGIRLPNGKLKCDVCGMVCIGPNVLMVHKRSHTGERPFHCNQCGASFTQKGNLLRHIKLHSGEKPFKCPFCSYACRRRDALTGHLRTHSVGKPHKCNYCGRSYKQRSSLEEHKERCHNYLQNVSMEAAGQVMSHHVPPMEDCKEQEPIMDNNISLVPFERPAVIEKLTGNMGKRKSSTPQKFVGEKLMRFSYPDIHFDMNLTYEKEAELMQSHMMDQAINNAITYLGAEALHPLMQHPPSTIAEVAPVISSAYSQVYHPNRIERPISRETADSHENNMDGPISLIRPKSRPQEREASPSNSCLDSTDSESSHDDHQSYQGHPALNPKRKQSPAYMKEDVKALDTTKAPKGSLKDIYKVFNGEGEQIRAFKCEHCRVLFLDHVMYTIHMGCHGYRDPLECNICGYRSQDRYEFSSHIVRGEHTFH
Sequence of UniProt P25123 (whole entry, looked up): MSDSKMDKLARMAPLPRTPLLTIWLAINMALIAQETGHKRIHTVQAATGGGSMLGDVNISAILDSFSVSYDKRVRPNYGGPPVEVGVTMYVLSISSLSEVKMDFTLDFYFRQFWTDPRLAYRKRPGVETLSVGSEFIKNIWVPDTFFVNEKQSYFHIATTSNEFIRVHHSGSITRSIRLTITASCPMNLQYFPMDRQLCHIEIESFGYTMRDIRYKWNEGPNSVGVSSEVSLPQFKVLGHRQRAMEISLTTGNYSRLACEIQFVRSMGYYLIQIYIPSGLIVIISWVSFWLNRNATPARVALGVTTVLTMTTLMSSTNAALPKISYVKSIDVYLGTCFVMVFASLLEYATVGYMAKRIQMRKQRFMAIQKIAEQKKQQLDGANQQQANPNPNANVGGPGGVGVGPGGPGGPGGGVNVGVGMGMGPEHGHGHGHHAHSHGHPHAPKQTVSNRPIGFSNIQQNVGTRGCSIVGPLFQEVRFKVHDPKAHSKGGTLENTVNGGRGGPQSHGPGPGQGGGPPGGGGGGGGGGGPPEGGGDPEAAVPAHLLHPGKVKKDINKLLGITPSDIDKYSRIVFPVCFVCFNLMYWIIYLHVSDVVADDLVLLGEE
Sequence of UniProt P40763 (whole entry, looked up): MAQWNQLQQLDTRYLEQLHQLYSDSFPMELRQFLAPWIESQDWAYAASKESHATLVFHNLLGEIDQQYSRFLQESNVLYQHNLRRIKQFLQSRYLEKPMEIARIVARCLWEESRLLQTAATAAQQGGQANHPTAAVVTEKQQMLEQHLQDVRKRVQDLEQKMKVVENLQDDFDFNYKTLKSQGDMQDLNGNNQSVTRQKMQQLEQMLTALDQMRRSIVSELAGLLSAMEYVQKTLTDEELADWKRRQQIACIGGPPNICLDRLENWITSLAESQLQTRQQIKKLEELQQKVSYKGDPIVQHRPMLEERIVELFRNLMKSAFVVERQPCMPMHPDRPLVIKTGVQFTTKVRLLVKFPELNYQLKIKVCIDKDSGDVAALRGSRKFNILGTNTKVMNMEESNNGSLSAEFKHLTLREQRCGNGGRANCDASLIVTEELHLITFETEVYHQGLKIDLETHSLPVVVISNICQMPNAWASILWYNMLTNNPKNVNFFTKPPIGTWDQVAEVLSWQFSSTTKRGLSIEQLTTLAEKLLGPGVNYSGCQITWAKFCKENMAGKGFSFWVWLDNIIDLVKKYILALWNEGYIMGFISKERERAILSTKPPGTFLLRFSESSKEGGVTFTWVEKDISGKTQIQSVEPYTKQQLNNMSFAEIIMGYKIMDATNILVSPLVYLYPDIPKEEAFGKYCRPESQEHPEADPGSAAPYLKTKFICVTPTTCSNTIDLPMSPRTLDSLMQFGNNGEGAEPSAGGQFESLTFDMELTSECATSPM
Sequence of UniProt Q04828 (whole entry, looked up): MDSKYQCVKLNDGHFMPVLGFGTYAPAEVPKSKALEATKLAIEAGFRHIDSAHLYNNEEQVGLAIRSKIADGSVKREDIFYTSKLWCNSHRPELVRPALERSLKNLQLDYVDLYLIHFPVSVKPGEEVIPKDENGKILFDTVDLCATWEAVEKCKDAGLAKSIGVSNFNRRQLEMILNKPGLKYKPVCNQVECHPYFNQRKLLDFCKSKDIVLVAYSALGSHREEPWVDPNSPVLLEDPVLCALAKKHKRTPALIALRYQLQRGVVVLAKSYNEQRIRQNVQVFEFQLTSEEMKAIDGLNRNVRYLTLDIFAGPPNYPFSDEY

C[C@@]12CC[C@@H]3c4ccc(O)c(Cl)c4CC[C@H]3[C@@H]1CCC2=O  inhibition (Aldo-keto reductase family 1 member C1 (AKR1C1, Homo sapiens, UniProt Q04828); enzyme activity, inhibitor, absorbance; 10 µM, pH 9): 18.5%
Cn1cc(-c2cccc(CN3CCC4(CC3)COc3c4ccc4c3CN([C@H]3CCC(=O)NC3=O)C4=O)c2)cn1  Dmax (CRBN/Zinc finger protein Helios (Homo sapiens, UniProt Q96SW2+Q9UKS7); degrader, flow cytometry; human primary regulatory T cells; 6 h): 92%
CC[C@H](C)[C@H](NC(=O)[C@H](Cc1ccc(O)cc1)NC(=O)[C@@H]1CCCN1C(=O)[C@H](C)NC(=O)[C@H](CC(C)C)NC(=O)[C@H](C)NC(=O)CCCCCNC(=O)[C@H](Cc1ccc(O)cc1)NC(=O)[C@H](Cc1c[nH]cn1)NC(=O)[C@H](CCSC)NC(=O)[C@H](CCSC)NC(=O)[C@H](CC(=O)O)NC(=O)[C@@H]1CCCN1C(=O)[C@@H]1CCCN1C(=O)[C@H](Cc1c[nH]c2ccccc12)NC(=O)[C@H](CO)NC(=O)[C@@H](NC(=O)[C@H](Cc1ccc(O)cc1)NC(=O)[C@H](Cc1ccc(O)cc1)NC(C)=O)C(C)C)C(=O)N1CCC[C@H]1C(=O)N[C@@H](Cc1ccc(O)cc1)C(=O)NCC(=O)N[C@@H](CCCNC(=N)N)C(=O)N[C@@H](CCCCN)C(=O)N[C@@H](CCCCN)C(=O)N[C@@H](CCCNC(=N)N)C(=O)N[C@@H](CCCNC(=N)N)C(=O)N[C@@H](CCC(N)=O)C(=O)N[C@@H](CCCNC(=N)N)C(=O)N[C@@H](CCCNC(=N)N)C(=O)N[C@@H](CCCNC(=N)N)C(N)=O  protein degradation (Signal transducer and activator of transcription 3 (STAT3, Homo sapiens, UniProt P40763); degrader, Western blot; HCT-116; 10 µM, 12 h): ~50%
C=C(C)C1C2OC(=O)C1C1(O)CC3OC34C(=O)OC2C14C (stereo not shown)  Hill coefficient (Rdl (Drosophila melanogaster, UniProt P25123); GABA-induced current, antagonist, two-electrode voltage clamp; Xenopus oocytes; wild-type receptor, together with: GABA at EC50): 0.73 ± 0.13
O=C(NCc1ccc(F)cc1)c1nc(NCCO)c2cccnc2c1O  ΔTm (Tripartite terminase subunit 3, C-terminal nuclease domain (Human betaherpesvirus 5, UniProt P16732); thermal shift; 20 µM, unit not given; reference: DMSO): > 0
CC[C@H](C)[C@H](NC(=O)[C@@H](Cc1c[nH]c2ccccc12)NC(=O)[C@@H]1CCCN1C(=O)[C@H](CCCCN)NC(=O)[C@H](CCCCN)NC(=O)CCNC(=O)CCNC(=O)CN1CCN(CC(=O)O)CCN(CC(=O)O)CCN(CC(=O)O)CC1)C(=O)N[C@@H](C[Si](C)(C)C)C(=O)O  efficacy (Neurotensin receptor type 2 (NTSR2, Homo sapiens, UniProt O95665); intracellular calcium mobilization, agonist, calcium imaging; HT-29; reference: levocabastine maximum response): 90.9% and 91%
CCN(Cc1ccccc1)C(=O)CCc1nc(CN2CCN(C(=O)Cc3ccc(OC)c(OC)c3)CC2)no1  inactivation curve shift (Sodium channel protein type 10 subunit alpha (Scn10a, Rattus norvegicus, UniProt Q62968); sodium current, whole-cell patch clamp; rat DRG neurons; 10 µM; reference: control, towards hyperpolarisation): 16.1 mV
CCOC(=O)C1C(OC(c2ccc(Cl)cc2)c2ccc(Cl)cc2)CC2CCC1N2C (single isomer, unassigned)  Ki (Adenosine receptor A1 (ADORA1, Homo sapiens, UniProt P30542); binding, radioligand displacement; inactive if below 75% at 10000 nM, together with: [3H]DPCPX): inactive
CCCC[C@H](NC=O)C(=O)N[C@@H](CCCC)C(=O)N[C@@H](Cc1c[nH]c2ccccc12)C(=O)N[C@@H](CCC(=O)O)C(=O)N[C@@H](CC(=O)O)C(=O)N[C@@H](Cc1c[nH]c2ccccc12)C(=O)N[C@H](C(=O)NCC(=O)N[C@@H](Cc1c[nH]c2ccccc12)C(=O)N[C@H](C(=O)O)[C@@H](C)CC)C(C)C  Ki/EC50 ratio (fMet-Leu-Phe receptor (FPR1, Homo sapiens, UniProt P21462); receptor downregulation; CHO cells): > 10 fold
CC[C@H](C)[C@H](NC(=O)[C@H](CCC(N)=O)NC(=O)[C@H](CC(C)C)NC(=O)[C@@H](NC(=O)CNC(=O)[C@H](Cc1ccc(O)cc1)NC(=O)[C@H](CC(=O)O)NC(=O)[C@@H](NC(=O)[C@H](CO)NC(=O)CNC(=O)[C@H](CC(=O)O)NC(=O)[C@@H](NC(=O)[C@H](CC(N)=O)NC(=O)[C@H](CCCNC(=N)N)NC(=O)[C@H](CC(N)=O)NC(=O)[C@@H](NC(=O)[C@H](C)NC(=O)[C@H](CCC(N)=O)NC(=O)[C@@H](NC(=O)[C@H](CC(N)=O)NC(=O)[C@H](Cc1ccccc1)NC(=O)[C@H](CC(N)=O)NC(=O)[C@H](CO)NC(=O)[C@H](CCC(=O)O)NC(=O)[C@H](Cc1ccccc1)NC(=O)[C@H](CCCCN)NC(=O)[C@H](C)NC(=O)[C@H](C)NC(=O)[C@H](CO)NC(=O)[C@@H](NC(=O)[C@H](Cc1c[nH]c2ccccc12)NC(=O)[C@H](CC(N)=O)NC(=O)CNC(=O)[C@H](CC(C)C)NC(=O)[C@H](CO)NC(=O)[C@H](Cc1ccc(O)cc1)NC(=O)CNC(=O)[C@H](CCCNC(=N)N)NC(=O)[C@H](Cc1ccc(O)cc1)NC(=O)[C@H](CC(N)=O)NC(=O)[C@@H](N)CC(=O)O)C(C)C)[C@@H](C)O)[C@@H](C)O)[C@@H](C)O)[C@@H](C)O)[C@@H](C)CC)C(=O)O  cage assembly half-life (Periplasmic serine endoprotease DegP (degP, Escherichia coli, UniProt P0C0V0, C83S/C95S/N322C); FRET; 10 µM, together with: protein 500 nM): 13.5 ± 0.7 s
CN[C@](C)(C[18F])C(=O)O  tracer uptake (A549 tumour model; host not given, pancreas; 1 h, tumour-bearing): 18 %ID/g
C[C@H](NCc1ccccc1)C(=O)NCC(=O)NCC(=O)N[C@@H](Cc1ccccc1)C(=O)N[C@@H]1CC(=O)NC[C@@H](C(=O)N[C@@H](CCCNC(=N)N)C(=O)N2CCC[C@H]2C(=O)N[C@@H](CCCCN)C(N)=O)NC(=O)[C@H](CCCNC(=N)N)NC(=O)[C@H](CCCNC(=N)N)NC1=O  affinity fold decrease (Kappa-type opioid receptor (Oprk1, Rattus norvegicus, UniProt P34975); binding; reference: zyklophin): 5 fold
CC(C)C[C@H](NC(=O)[C@H](Cc1ccccc1)NC(=O)CNC(=O)CNC(=O)[C@@H](N)Cc1ccc(O)cc1)C(=O)O  reversal potential (K+ current, agonist, photo-uncaging; rat locus coeruleus neurons; small somatic currents): -109 ± 1.6 mV

For quick reference, copied from above:
CC[C@H](C)[C@H](NC(=O)[C@@H](Cc1c[nH]c2ccccc12)NC(=O)[C@@H]1CCCN1C(=O)[C@H](CCCCN)NC(=O)[C@H](CCCCN)NC(=O)CCNC(=O)CCNC(=O)CN1CCN(CC(=O)O)CCN(CC(=O)O)CCN(CC(=O)O)CC1)C(=O)N[C@@H](C[Si](C)(C)C)C(=O)O  efficacy (Neurotensin receptor type 2 (NTSR2, Homo sapiens, UniProt O95665); intracellular calcium mobilization, agonist, calcium imaging; HT-29; reference: levocabastine maximum response): 90.9% and 91%
